Results collected from several papers.
Numbered parts are unrelated; each lists some results of a single study. Values joined by “and” are separate records of one study, mostly repeats; a detail may differ.
Chain of UniProt Q13237 (whole entry, looked up): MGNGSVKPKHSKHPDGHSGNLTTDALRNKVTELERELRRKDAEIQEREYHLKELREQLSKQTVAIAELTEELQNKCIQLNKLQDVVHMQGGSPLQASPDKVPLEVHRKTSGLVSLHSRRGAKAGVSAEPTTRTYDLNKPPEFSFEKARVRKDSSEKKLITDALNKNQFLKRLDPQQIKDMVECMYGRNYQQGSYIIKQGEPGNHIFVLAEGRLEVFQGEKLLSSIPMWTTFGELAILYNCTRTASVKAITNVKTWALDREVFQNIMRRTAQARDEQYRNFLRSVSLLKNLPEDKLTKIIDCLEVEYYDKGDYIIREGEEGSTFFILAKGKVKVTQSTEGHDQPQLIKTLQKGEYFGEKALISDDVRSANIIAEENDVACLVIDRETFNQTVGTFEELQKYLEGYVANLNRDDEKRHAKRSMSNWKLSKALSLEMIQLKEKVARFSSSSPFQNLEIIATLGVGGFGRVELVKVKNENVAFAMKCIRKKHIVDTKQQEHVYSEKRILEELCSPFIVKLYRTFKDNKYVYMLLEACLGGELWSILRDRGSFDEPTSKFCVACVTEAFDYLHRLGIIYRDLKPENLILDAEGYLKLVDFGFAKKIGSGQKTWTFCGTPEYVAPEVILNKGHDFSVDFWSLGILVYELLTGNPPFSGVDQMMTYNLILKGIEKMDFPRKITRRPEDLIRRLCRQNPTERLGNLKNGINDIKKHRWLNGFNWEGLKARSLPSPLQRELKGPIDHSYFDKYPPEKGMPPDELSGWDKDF
Chain of UniProt Q8WXR4 (whole entry, looked up): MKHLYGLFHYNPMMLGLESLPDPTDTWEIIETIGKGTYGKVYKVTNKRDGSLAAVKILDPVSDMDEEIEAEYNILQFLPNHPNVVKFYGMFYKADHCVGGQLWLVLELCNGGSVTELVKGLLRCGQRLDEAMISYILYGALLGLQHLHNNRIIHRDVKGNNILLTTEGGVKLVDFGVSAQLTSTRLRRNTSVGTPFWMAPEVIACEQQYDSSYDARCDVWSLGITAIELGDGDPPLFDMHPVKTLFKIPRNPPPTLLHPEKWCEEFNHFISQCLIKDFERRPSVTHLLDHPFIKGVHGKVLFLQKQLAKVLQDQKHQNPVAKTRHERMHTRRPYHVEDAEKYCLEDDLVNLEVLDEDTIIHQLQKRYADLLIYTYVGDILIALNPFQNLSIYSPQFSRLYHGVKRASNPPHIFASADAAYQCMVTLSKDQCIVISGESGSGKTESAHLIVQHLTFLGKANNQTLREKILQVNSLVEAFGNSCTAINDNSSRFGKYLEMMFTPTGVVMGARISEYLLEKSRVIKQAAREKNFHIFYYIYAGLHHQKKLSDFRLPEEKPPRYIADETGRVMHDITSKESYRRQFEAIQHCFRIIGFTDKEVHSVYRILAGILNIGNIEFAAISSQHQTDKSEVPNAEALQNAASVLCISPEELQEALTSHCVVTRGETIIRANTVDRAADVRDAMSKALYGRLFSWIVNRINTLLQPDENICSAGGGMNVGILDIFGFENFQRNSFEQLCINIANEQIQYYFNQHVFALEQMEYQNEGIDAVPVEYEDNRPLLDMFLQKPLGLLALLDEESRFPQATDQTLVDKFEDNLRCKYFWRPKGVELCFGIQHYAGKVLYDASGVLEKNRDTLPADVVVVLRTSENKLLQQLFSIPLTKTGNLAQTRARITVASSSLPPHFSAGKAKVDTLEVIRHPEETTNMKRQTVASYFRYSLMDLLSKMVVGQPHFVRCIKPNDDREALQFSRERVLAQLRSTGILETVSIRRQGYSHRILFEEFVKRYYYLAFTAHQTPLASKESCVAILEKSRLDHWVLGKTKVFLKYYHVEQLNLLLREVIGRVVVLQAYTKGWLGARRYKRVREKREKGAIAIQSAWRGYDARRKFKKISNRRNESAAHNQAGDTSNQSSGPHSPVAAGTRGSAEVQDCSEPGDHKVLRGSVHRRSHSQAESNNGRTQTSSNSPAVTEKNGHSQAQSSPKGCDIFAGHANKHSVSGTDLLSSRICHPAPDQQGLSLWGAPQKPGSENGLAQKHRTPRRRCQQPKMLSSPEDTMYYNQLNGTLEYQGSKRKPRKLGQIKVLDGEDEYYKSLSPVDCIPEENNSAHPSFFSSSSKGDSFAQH
Chain of UniProt P50750 (whole entry, looked up): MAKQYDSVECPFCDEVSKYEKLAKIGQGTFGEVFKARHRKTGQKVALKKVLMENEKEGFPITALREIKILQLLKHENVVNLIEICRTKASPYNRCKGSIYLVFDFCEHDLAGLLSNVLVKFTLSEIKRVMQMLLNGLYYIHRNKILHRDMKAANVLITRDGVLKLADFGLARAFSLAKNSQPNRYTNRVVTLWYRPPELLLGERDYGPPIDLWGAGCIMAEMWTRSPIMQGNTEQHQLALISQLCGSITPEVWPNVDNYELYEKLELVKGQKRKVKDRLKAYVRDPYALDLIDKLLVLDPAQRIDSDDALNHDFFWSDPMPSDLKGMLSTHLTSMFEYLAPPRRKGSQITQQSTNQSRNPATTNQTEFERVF
Chain of UniProt P47898 (whole entry, looked up): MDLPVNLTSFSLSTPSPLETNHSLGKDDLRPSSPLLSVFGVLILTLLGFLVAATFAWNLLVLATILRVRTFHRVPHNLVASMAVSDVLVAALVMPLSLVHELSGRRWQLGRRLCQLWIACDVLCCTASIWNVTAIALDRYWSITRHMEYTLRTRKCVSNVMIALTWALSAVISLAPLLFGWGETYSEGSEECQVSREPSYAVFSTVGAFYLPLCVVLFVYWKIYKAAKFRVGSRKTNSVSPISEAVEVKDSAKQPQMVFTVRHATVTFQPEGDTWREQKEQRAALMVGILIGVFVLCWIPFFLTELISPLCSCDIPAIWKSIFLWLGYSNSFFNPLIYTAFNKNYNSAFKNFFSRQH
Chain of UniProt P06493 (whole entry, looked up): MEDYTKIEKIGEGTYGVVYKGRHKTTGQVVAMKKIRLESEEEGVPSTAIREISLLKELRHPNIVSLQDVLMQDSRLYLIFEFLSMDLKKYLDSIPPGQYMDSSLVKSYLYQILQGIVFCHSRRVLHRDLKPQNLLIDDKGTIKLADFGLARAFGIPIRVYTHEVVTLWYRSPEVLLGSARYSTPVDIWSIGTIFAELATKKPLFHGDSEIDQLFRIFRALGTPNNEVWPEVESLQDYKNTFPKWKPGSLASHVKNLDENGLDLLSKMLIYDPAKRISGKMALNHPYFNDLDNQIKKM
Chain of UniProt O75914 (whole entry, looked up): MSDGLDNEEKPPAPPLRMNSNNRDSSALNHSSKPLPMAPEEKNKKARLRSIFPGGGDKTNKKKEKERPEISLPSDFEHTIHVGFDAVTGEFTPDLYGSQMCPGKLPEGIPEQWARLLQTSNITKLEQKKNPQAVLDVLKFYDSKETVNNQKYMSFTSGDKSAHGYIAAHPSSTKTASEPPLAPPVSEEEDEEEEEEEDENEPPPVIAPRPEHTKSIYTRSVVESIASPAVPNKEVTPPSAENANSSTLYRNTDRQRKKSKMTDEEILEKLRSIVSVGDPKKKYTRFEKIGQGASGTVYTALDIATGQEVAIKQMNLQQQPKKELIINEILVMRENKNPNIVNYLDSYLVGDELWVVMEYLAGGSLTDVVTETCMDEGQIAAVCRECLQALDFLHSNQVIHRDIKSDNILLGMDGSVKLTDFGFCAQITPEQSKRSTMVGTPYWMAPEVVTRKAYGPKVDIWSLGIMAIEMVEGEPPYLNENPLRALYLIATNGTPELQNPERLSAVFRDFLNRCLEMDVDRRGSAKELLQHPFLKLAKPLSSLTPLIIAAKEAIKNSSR
Chain of UniProt O75676 (whole entry, looked up): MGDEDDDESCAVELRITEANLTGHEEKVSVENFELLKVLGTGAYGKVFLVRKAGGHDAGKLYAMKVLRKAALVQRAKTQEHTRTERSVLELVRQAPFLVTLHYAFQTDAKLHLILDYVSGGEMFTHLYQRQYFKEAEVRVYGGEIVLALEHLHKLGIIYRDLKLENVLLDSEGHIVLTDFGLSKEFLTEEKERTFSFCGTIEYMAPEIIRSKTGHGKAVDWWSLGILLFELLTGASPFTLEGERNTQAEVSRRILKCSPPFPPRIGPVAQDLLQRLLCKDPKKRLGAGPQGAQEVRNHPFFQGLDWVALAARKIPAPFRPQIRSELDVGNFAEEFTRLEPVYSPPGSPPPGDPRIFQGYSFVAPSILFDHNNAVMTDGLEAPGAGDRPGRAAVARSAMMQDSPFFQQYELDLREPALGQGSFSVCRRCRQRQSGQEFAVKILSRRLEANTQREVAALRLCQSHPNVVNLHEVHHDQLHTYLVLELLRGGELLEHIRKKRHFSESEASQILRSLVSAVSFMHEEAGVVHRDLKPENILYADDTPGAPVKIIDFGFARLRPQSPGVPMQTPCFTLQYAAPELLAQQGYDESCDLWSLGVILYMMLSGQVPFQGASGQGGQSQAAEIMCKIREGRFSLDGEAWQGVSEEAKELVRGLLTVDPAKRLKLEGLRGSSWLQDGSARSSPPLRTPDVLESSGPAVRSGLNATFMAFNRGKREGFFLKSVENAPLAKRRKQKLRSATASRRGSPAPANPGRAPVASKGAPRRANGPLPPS

Set 1
SMILES: Cn1cc(/C=C2\C(=O)Nc3ccc(S(N)(=O)=O)cc32)c2ccccc21
Effect on: enzyme activity
Mode: inhibitor
Tested at: 0.5 µM
Relative to: control
target	remaining activity [%]
GRK4 (Homo sapiens, UniProt P32298)	40.4
RPS6KA4 (Homo sapiens, UniProt O75676)	71.2
ROCK1 (Homo sapiens, UniProt Q13464)	63.8
Myosin-IIIb (MYO3B, Homo sapiens, UniProt Q8WXR4)	74.6
CLK3 (Homo sapiens, UniProt P49761)	81.4
MAPK1 (Homo sapiens, UniProt P28482)	98.2
Cyclin-dependent kinase 1, with cyclin A (CDK1, Homo sapiens, UniProt P06493)	56.9
Cyclin-dependent kinase 9, with cyclin K (CDK9, Homo sapiens, UniProt P50750)	86.8
PAK3 (Homo sapiens, UniProt O75914)	93.8
MAP2K1 (Homo sapiens, UniProt Q02750)	63.6
DCLK2 (Homo sapiens, UniProt Q8N568)	93.2
PRKG2 (Homo sapiens, UniProt Q13237)	85
AKT2 (Homo sapiens, UniProt P31751)	88.6
CLK4 (Homo sapiens, UniProt Q9HAZ1)	42.6

Set 2
Cell line: HaCaT
Tested at: 100 µM
Time: 18 h
SMILES	viability [%]
CC(C)(C)NCC(O)c1cc(O)cc(O)c1 (stereo not shown)	112
Nc1ccc(S(=O)(=O)Nc2ccc(Cl)nn2)cc1	74.3
NC(=O)N1c2ccccc2CC(=O)c2ccccc21	63.9
C#C[C@]1(OC(C)=O)CC[C@H]2[C@@H]3CCC4=C[C@@H](OC(C)=O)CC[C@@H]4[C@H]3CC[C@@]21C	54.2
C[C@@H]1O[C@@H](O[C@H]2[C@H](Oc3cc(O)c4c(c3)O[C@H](c3ccc(O)cc3)CC4=O)O[C@H](CO)[C@@H](O)[C@@H]2O)[C@H](O)[C@H](O)[C@H]1O	98.9
N=c1ccn2c(n1)O[C@H]1[C@H](O)[C@@H](CO)O[C@H]12	112

Set 3
Target: Centromere-binding protein 1, full length, His-tagged (CBF1, Saccharomyces cerevisiae, UniProt P17106, residues 1-351)
Chain of UniProt P17106 (whole entry, looked up): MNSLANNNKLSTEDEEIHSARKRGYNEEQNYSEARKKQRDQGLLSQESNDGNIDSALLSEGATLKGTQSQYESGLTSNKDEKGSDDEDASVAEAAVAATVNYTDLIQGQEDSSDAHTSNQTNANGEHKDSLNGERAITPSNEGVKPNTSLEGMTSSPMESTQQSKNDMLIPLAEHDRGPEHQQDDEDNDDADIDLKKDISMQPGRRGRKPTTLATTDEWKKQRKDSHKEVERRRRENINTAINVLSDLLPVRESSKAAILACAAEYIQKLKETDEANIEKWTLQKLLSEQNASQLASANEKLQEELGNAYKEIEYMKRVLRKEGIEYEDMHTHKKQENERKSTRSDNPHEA
Technique: competition protein-binding microarray
Molecule type: double-stranded DNA, one strand shown
Sample: in vitro
Tested at: 2 µM
Notes: whole 60-bp probe, lowest competitor level
Together with: Pho4 competitor, 0.05 µM
Direction: higher = stronger binding
All sequences stand within: … GTCTTGATTCGCTTGACGCTGCTG
Oligonucleotide	fluorescence intensity
AGAGGGCAGAATTTGTCCGTGCGGACATTTGCCTGT	62.9 a.u.
CTTCATTTTGGGTGGCACATGGCAAAGCAATGTCGA	166 a.u.
CTTTCCCGATCTTGTGAAGTGGGTGTAGCACATTTG	86.4 a.u.
CTTTCCCGATCTTGCGTAGTGGGTGTAGCACATTTG	89 a.u.
GAAACCATCTTTTTCAACGTGTTGGAAACAGTAGGT	97.1 a.u.
AGCAAGTAATCTTTGCACGTGGCCGGACGTAGATGA	1050 a.u.
TGTTTGCTTGATCCACACGTGTATATAAAAATGTTT	1440 a.u.
GTCTTGTCTCATTGCCAAGTGGGTGTCCCCACTTCA	64.3 a.u.

Other studies, line by line
SMILES	target or system	test	system	conditions	how to read	endpoint	value
CC(C)n1cnc(-c2ccc(F)cc2)c1-c1ncc(C(=O)Nc2ccc(N3CCN(C)CC3)cc2)[nH]1			IPF patients	60 mg once daily, adverse event		aortic valve incompetence incidence	0%
CN1CCN(c2cnc3c(C4CCN(C(=O)c5ccc(OC(F)(F)F)cc5N)CC4)ncnc3c2)CC1	HTR5A (Homo sapiens, UniProt P47898)	ligand displacement		10 µM		inhibition	-1.47%
COc1ccc(-c2c(Nc3ccccn3)[nH]c3c(C4=CCCCC4)c(-c4ccccc4)nn3c2=O)cc1			human, plasma	oral, 200 mg twice daily	relative to: (Cmax-Cmin) over Cmin	swing	0.685 and 0.551 and 0.263

A few entries again (set 1):
target	remaining activity [%]
PAK3 (Homo sapiens, UniProt O75914)	93.8
MAPK1 (Homo sapiens, UniProt P28482)	98.2
GRK4 (Homo sapiens, UniProt P32298)	40.4
Cyclin-dependent kinase 9, with cyclin K (CDK9, Homo sapiens, UniProt P50750)	86.8
